Measured values from different studies.
Numbered parts are unrelated; each lists some results of a single study. Values joined by “and” are separate records of one study, mostly repeats; a detail may differ.
Chain of UniProt P00519 (whole entry, unmodified, looked up): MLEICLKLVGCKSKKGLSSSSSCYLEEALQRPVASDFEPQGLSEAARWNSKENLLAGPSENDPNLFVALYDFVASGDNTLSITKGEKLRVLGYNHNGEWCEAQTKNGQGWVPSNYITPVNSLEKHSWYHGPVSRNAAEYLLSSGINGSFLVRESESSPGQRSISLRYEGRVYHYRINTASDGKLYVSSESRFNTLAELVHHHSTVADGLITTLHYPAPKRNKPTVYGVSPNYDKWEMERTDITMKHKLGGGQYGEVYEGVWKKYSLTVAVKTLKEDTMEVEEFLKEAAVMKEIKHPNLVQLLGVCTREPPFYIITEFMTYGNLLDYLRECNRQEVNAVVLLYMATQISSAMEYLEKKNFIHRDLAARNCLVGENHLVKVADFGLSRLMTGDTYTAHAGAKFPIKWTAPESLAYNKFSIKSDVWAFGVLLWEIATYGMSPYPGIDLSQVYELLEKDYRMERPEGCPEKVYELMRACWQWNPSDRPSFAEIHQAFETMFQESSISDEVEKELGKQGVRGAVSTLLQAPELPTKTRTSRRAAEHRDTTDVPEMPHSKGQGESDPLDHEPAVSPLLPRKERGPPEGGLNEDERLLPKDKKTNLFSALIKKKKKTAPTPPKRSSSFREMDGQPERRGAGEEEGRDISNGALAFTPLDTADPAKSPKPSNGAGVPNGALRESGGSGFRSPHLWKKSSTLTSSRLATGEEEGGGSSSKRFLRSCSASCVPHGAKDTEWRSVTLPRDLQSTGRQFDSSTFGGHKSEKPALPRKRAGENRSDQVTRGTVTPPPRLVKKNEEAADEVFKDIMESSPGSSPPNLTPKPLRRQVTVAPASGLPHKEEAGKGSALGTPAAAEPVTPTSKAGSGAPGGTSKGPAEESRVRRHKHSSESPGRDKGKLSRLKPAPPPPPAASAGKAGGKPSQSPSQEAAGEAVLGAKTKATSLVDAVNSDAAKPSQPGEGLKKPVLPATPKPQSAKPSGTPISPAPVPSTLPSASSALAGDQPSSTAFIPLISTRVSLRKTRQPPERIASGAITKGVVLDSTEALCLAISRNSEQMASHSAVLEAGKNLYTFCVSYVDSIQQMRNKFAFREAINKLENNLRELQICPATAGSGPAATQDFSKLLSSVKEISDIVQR
Chain of UniProt Q8IVW4 (whole entry, looked up): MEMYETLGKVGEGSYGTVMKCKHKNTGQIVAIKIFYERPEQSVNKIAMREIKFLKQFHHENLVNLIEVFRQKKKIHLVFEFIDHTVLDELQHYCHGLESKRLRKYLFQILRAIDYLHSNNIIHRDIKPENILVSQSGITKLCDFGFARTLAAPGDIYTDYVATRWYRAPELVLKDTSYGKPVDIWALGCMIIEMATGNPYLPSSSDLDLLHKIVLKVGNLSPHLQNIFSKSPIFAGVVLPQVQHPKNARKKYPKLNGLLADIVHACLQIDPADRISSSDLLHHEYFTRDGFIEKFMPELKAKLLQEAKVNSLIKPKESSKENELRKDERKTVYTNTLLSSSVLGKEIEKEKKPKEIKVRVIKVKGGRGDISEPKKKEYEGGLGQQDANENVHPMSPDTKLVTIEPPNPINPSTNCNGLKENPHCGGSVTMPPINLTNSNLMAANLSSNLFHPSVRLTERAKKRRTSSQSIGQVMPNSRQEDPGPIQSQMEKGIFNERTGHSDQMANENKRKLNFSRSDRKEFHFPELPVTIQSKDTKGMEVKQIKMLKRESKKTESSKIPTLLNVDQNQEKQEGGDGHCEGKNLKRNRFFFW
Chain of UniProt O75747 (whole entry, looked up): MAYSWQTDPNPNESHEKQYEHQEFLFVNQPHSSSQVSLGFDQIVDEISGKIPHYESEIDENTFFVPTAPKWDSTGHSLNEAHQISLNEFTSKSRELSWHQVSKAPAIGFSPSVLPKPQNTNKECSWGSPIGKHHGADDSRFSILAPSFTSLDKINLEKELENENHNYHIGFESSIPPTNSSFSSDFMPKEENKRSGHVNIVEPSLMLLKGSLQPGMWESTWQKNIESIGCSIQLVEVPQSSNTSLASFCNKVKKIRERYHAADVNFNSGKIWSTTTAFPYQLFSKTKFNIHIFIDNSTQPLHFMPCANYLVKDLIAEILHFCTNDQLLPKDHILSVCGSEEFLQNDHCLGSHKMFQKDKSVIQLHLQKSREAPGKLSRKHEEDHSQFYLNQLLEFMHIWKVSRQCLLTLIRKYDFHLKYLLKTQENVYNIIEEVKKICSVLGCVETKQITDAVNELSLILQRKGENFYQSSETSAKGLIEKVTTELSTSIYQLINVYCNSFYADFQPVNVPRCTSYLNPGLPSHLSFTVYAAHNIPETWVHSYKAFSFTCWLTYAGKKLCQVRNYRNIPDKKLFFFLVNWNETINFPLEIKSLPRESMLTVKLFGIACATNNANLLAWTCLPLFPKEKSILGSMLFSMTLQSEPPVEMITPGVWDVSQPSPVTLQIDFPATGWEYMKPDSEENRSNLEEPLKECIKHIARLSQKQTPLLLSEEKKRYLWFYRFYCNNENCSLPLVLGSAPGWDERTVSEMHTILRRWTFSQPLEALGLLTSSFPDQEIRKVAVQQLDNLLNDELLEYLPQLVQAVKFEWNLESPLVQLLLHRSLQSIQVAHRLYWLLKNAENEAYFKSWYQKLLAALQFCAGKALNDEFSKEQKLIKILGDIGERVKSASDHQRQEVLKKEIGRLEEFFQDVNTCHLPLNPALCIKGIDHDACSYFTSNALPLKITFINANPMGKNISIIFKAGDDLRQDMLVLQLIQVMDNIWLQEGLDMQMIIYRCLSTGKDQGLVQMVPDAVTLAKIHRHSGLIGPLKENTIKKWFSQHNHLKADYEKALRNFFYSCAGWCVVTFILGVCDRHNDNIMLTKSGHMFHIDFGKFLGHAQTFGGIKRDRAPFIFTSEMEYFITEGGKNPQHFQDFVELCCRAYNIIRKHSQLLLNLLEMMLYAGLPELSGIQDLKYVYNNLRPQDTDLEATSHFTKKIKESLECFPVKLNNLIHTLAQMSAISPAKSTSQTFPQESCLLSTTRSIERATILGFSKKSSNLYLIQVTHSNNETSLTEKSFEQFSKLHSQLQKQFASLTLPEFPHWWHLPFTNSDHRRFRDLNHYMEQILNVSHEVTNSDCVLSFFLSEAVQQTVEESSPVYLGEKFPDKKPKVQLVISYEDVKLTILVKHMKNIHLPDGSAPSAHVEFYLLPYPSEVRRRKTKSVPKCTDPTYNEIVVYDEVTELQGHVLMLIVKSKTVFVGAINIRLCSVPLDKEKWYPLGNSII
Chain of UniProt Q9Y6M4 (whole entry, looked up): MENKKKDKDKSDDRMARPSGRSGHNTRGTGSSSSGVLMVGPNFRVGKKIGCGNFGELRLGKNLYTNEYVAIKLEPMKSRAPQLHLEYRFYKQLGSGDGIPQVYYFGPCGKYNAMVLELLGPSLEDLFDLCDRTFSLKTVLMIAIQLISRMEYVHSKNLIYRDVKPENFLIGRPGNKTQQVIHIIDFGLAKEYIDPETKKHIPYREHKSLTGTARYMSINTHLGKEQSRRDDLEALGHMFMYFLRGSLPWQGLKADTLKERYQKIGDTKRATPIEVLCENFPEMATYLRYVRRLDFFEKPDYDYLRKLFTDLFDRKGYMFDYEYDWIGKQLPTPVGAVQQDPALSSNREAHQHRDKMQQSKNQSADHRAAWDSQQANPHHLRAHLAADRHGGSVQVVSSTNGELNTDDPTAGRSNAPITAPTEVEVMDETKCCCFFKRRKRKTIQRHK
Chain of UniProt P42685 (whole entry, looked up): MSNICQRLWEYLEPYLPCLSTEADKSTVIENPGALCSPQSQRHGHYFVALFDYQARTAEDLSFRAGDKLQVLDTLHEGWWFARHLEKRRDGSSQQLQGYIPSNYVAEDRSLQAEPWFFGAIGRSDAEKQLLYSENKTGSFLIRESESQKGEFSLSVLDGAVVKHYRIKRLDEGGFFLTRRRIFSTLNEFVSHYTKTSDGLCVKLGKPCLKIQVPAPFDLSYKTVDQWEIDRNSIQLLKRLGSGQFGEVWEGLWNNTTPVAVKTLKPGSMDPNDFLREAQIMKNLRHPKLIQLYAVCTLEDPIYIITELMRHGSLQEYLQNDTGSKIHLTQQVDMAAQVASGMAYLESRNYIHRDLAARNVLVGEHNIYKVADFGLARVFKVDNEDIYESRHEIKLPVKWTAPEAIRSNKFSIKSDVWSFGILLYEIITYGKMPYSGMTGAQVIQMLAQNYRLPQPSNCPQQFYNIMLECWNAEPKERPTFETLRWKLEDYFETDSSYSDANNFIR
Chain of UniProt P45983 (whole entry, looked up): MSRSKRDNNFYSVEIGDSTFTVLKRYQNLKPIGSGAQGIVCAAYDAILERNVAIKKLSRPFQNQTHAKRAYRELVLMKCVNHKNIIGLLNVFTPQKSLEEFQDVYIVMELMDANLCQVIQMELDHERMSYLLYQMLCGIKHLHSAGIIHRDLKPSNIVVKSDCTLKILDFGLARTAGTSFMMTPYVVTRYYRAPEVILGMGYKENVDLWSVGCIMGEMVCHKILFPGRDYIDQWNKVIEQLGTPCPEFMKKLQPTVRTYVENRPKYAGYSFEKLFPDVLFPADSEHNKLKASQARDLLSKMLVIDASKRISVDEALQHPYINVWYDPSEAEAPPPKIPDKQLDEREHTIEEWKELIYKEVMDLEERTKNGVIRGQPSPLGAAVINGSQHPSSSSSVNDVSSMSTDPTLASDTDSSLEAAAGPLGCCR

Block 1
Target: Cyclin-dependent kinase 6, with cyclin D1 (CDK6, Homo sapiens, UniProt Q00534)
Chain of UniProt Q00534 (whole entry, looked up): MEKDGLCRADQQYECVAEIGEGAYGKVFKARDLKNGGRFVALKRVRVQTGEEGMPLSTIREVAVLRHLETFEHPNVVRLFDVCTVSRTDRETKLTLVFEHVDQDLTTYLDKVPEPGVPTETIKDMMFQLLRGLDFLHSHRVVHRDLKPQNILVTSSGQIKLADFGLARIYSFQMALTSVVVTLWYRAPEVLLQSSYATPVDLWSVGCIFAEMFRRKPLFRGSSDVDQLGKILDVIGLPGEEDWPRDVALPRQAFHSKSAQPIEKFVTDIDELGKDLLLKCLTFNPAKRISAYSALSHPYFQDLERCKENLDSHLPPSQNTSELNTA
Read-out: enzyme activity
Mode: inhibitor
Concentration: 0.5 µM
Relative to: control
SMILES | remaining activity [%]
Cc1cncc2cccc(S(=O)(=O)N3CCCN(C(=O)CN)C[C@@H]3C)c12 | 99.8
CC(=O)c1ccc(N2CCOCC2)cc1O | 99.3
CCCC(=O)Oc1ccc2[nH]c(C(=O)c3cc4ccccc4[nH]3)cc2c1 | 92.7
O=C1NC(=O)C(c2c[nH]c3ccccc23)=C1c1c[nH]c2ccccc12 | 88.7
CSc1nc(-c2ccnc(N[C@@H](C)c3ccccc3)c2)c(-c2ccc(F)cc2)[nH]1 (racemic) | 90.9
Fc1ccc(-c2nc3n(c2-c2ccncc2)CCS3)cc1 | 97
O=S(=O)(NCCNC/C=C/c1ccc(Br)cc1)c1cccc2cnccc12 | 77.9
Nc1nc(Nc2ccc(S(N)(=O)=O)cc2)nn1C(=O)c1c(F)cccc1F | 17.1
CC[n+]1c(/C=C/N(C)c2ccccc2)n(-c2ccccc2)c2ccc(-c3nc4ccccc4s3)cc21 | 103
COc1ccc(S(=O)(=O)N(CCO)c2ccccc2CN(C)CC=Cc2ccc(Cl)cc2)cc1 | 92.7

Block 2
Structure (SMILES): CC(=O)N[C@@H](Cc1c[nH]c2ccccc12)C(=O)N[C@@H](CCC(=O)C=[N+]=[N-])C(=O)OC(C)C
Route: subcutaneous
Time: 5 days
assay | system | conditions | how to read | metabolite peak intensity
LC-MS/MS metabolomics, measured: 3-phosphoglycerate | C57BL/6 CES1-/- mice, EL4 tumour, EL4 tumour | 0.3 mg/kg/day DON equivalent, normalised to tissue mass | higher = more metabolite | 329000 a.u. and 510000 a.u. and 815000 a.u. and 718000 a.u. and 536000 a.u. and 490000 a.u.
UPLC-MS/MS, measured: hypotaurine | EL4, C57BL/6 CES1-/- mice, EL4 tumour, tumour | 0.3 mg/kg/day DON equivalent, normalised to tissue mass | higher = more metabolite | 990000 a.u. and 563000 a.u. and 1.67e+06 a.u. and 1.23e+06 a.u. and 955000 a.u. and 1.62e+06 a.u.
LC-MS/MS metabolomics, measured: mesaconate | C57BL/6 CES1-/- mice, EL4 tumour, EL4 tumour | 0.3 mg/kg/day DON equivalent | higher = more metabolite | 1.37e+07 a.u. and 1.19e+07 a.u. and 6.39e+06 a.u. and 5.04e+06 a.u. and 7.81e+06 a.u. and 4.98e+06 a.u.
LC-MS/MS, measured: S-methylcysteine sulfoxide | C57BL/6 CES1-/- mice, EL4 tumour | 0.3 mg/kg DON equivalent |  | 252000 a.u. and 46100 a.u. and 129000 a.u. and 59200 a.u. and 515000 a.u. and 443000 a.u.
LC-MS/MS, measured: nicotinamide riboside | C57BL/6 CES1-/- mice, EL4 tumour | 0.3 mg/kg DON equivalent |  | 1.1e+06 a.u. and 1.03e+06 a.u. and 972000 a.u. and 911000 a.u. and 931000 a.u. and 1.24e+06 a.u.

Block 3
SMILES: CN(C)c1ncnc(-c2ccc3nc(Nc4cc(CN5CCN(C(=O)CC(F)(F)F)CC5)ccn4)[nH]c3c2)c1Cl
Method: competition with immobilised ligand
Concentration: 1 µM
target | read-out | remaining binding
SLK (Homo sapiens, UniProt Q9H2G2) | cell-free assay | 100%
MAPK8 (Homo sapiens, UniProt P45983) | cell-free assay | 63%
Mast/stem cell growth factor receptor Kit, autoinhibited (KIT, Homo sapiens, UniProt P10721) | cell-free assay | 96%
CSNK1G3 (Homo sapiens, UniProt Q9Y6M4) | cell-free assay | 100%
MAP3K20 (Homo sapiens, UniProt Q9NYL2) | cell-free assay | 65%
NEK2 (Homo sapiens, UniProt P51955) | cell-free assay | 86%
CDKL3 (Homo sapiens, UniProt Q8IVW4) | cell-free assay | 86%
Tyrosine-protein kinase ABL1, non-phosphorylated (ABL1, Homo sapiens, UniProt P00519, F317I) | binding | 28%
PIK3C2G (Homo sapiens, UniProt O75747) | cell-free assay | 83%
FRK (Homo sapiens, UniProt P42685) | cell-free assay | 85%
PRKAA1 (Homo sapiens, UniProt Q13131) | cell-free assay | 100%
ULK2 (Homo sapiens, UniProt Q8IYT8) | cell-free assay | 64%
PRKCQ (Homo sapiens, UniProt Q04759) | cell-free assay | 100%
LRRK2 (Homo sapiens, UniProt Q5S007) | cell-free assay | 84%

Single results of other studies
SMILES | host | dose | notes | measurement | value
CC(C)n1cnc(-c2ccc(F)cc2)c1-c1ncc(C(=O)Nc2ccc(N3CCN(C)CC3)cc2)[nH]1 | IPF patients | 60 mg once daily | adverse event | Hypercholesterolaemia incidence | 0%
